Assay results pooled from the literature.
Each line is one published result; not all experiments were run side by side. Several values in a cell are separate wells, animals, samples, runs or records. ± marks the error that the study gave.
SRC SH3-SH2-kinase domain: Proto-oncogene tyrosine-protein kinase Src, SH3-SH2-kinase domain (SRC, Gallus gallus, UniProt P00523)
FGFR3: Fibroblast growth factor receptor 3 (FGFR3, Homo sapiens, UniProt P22607)
Sequence of UniProt P22607 (whole entry, looked up): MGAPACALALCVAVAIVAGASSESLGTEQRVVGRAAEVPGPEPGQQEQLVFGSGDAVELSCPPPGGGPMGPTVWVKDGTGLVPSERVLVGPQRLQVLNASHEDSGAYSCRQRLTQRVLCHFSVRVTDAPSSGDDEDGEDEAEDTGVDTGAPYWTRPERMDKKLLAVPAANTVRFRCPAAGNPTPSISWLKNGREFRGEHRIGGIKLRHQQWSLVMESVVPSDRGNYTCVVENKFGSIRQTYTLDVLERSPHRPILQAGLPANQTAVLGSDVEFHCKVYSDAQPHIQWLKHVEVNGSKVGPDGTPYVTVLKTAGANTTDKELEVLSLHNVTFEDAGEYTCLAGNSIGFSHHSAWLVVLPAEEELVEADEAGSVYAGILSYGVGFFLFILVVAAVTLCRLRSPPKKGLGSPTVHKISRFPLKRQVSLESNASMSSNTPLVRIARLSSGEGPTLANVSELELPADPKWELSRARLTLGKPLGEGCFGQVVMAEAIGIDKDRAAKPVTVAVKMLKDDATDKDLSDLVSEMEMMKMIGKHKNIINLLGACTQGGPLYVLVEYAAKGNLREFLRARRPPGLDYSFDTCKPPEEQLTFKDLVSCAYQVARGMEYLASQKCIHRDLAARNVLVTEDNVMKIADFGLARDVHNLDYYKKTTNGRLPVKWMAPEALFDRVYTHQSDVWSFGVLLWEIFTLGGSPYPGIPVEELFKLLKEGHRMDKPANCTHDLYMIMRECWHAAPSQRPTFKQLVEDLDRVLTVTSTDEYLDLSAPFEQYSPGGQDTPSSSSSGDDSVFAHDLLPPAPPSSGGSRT
Genome polyprotein NS3 helicase domain: Genome polyprotein, NS3 helicase domain (Hepatitis C virus genotype 1b, UniProt Q9WMX2)
Sequence of UniProt Q2HRB6 (whole entry, looked up): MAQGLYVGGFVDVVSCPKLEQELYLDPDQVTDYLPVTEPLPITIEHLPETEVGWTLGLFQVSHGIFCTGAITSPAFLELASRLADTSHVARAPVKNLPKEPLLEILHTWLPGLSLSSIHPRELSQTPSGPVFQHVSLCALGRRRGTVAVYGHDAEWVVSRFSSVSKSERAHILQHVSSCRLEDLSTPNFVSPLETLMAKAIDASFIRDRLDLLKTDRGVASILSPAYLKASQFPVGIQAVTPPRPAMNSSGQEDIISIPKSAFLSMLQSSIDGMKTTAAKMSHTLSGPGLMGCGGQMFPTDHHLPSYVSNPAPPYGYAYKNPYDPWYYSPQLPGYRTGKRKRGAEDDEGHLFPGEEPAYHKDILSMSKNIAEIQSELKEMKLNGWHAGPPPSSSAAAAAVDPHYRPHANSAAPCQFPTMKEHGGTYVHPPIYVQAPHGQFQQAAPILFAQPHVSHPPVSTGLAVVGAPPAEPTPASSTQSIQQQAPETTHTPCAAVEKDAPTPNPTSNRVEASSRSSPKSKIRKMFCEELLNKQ
Sequence of UniProt O15075 (whole entry, looked up): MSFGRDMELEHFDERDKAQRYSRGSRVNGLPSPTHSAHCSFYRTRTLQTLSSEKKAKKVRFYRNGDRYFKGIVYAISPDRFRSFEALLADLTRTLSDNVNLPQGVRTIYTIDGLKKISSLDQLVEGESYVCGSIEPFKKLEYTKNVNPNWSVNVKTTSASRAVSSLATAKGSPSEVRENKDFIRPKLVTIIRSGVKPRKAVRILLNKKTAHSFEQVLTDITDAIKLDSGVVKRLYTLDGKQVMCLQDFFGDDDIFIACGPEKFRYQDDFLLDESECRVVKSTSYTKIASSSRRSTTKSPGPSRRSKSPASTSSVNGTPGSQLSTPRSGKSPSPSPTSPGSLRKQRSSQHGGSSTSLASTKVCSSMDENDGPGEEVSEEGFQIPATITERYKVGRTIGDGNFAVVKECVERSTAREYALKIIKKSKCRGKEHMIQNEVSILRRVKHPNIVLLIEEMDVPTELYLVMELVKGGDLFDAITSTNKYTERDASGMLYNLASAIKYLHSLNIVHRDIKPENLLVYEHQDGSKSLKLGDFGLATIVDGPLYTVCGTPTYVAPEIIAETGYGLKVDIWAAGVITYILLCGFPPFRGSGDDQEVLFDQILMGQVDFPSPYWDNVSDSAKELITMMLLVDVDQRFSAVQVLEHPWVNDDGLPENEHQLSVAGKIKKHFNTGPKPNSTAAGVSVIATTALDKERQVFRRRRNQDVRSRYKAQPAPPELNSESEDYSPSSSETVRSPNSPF

SMILES | target | assay | test system | conditions | IC50
O=C(Cn1cc([N+](=O)[O-])cc(Br)c1=O)c1cc2cc(Cl)ccc2[nH]1 | DNA repair protein RAD52 homolog, with RPA and ssDNA (RAD52, Homo sapiens, UniProt P43351) | inhibitor, FRET | – | – | 4550 ± 160 nM
CCN(CC)CCCC[C@H](NC(=O)[C@@H](NC(=O)[C@H](C)NC(=O)[C@H](Cc1ccccc1)NC(=O)c1ccc(C(F)(F)F)cc1)C1CCCC1)C(=O)N[C@@H](CO)C(N)=O | Chromobox protein homolog 8 (Homo sapiens, UniProt Q9HC52) | binding, inhibitor, competitive fluorescence polarization | – | pH 8.0 | 12000 ± 2000 nM
O=C(Cn1nc(C(F)(F)F)c2c1CCCC2)NC1CCCCC1 | Trypanothione synthetase (Trypanosoma brucei, UniProt Q586P2) | enzyme activity, inhibitor | – | – | > 100000 nM
C=CCn1c(=S)[nH]c2cc3ccccc3cc2c1=O | Genome polyprotein, protease (Hepatitis C virus genotype 1b, UniProt O92972) | enzyme activity, inhibitor, FRET | – | – | 20400 nM
O=C(O)c1cccc(Nc2nc(-c3ccc(Cl)c(Cl)c3)cs2)c1 | Capsid scaffolding protein, protease domain (Human herpesvirus 8 type P, UniProt Q2HRB6) | protease activity, inhibitor | – | added: fluorogenic peptide substrate | 6720 nM and 6700 nM
CC(C)NCc1ccc(C[C@@H]2NC(=O)[C@@H](Cc3c[nH]c4ccccc34)NC(=O)[C@H](Cc3ccc(O)cc3)NC(=O)[C@H](NC(=O)[C@@H](N)Cc3ccc(Cl)cc3)CSSC[C@@H](C(=O)N[C@@H](Cc3ccc4ccccc4c3)C(N)=O)NC(=O)[C@H]([C@@H](C)O)NC2=O)cc1 | SSTR1 (Homo sapiens, UniProt P30872) | ligand displacement, radioligand | – | cell membranes | > 1000 nM
CC(C)[C@H](N)C(=O)N[C@H](C(=O)N[C@@H](CCCCN)C(=O)N[C@@H](Cc1c[nH]cn1)C(=O)N[C@@H](Cc1c[nH]cn1)C(=O)N[C@@H](CO)C(=O)N1CCC[C@H]1C(=O)N[C@H](C(=O)O)C(C)C)C(C)C | APOBEC3G (Homo sapiens, UniProt Q9HC16) | deamination activity, inhibitor, PCR/StuI restriction | – | pH 7.4, 37 °C, added: ssDNA substrate 1 fmol/µL | > 100000 nM
CC1(CN)CCN(c2cnc(Sc3cccc(Cl)c3Cl)c(N)n2)CC1 | PTPN6 (Homo sapiens, UniProt P29350) | enzyme activity, inhibitor, fluorescence | – | – | > 100000 nM
CC(C)CCn1c(OC2CCN(C(=O)C3CC3)CC2)nc2c1c(=O)n(C)c(=O)n2C | HPGD (Homo sapiens, UniProt P15428) | – | – | – | > 57000 nM
O=S(=O)(O)C1CCNCC1 | SLC6A6 (Homo sapiens, UniProt P31641) | transporter uptake, inhibitor, radiometric | – | – | 270000 nM
Cn1c(=O)n(CCCO)c(=O)c2c1nc(Oc1cccc(C3(C(F)(F)F)N=N3)c1)n2Cc1ccc(Cl)cc1 | TRPC4/TRPC1 (TRPC1/TRPC4, Homo sapiens, UniProt P48995+Q9UBN4) | calcium influx, inhibitor, Fura-2 | HEK T-REx expressing TRPC1/TRPC4 | added: englerin A 30 nM | 1.4 nM
CC(C)C[C@H](NC(=O)[C@H](CC(N)=O)NC(=O)[C@H](CC(C)C)NC(=O)[C@@H](NC(=O)[C@@H](NC(=O)[C@@H]1CCCN1C(=O)[C@H](CCCNC(=N)N)NC(=O)[C@H](CCCCN)NC(=O)[C@@H]1CCCN1C(=O)[C@H](CCCNC(=N)N)NC(=O)[C@@H]1CCCN1C(=O)[C@@H]1CCCN1C(=O)[C@H](CCCNC(=N)N)NC(=O)[C@H](CCCNC(=N)N)NC(=O)[C@H](CCCNC(=N)N)NC(=O)[C@H](CCC(N)=O)NC(=O)[C@H](CCCNC(=N)N)NC(=O)[C@H](CCCNC(=N)N)NC(=O)[C@H](CCCCN)NC(=O)[C@H](CCCCN)NC(=O)[C@H](CCCNC(=N)N)NC(=O)CN)[C@@H](C)O)[C@@H](C)O)C(=O)N[C@@H](Cc1ccccc1)C(=O)N1CCC[C@H]1C(=O)N[C@@H](CCC(N)=O)C(=O)N[C@H](C(=O)N1CCC[C@H]1C(=O)N[C@@H](CCCNC(=N)N)C(=O)N[C@@H](CO)C(=O)N[C@@H](CCC(N)=O)C(=O)N[C@@H](CC(=O)O)C(=O)N[C@H](C(N)=O)[C@@H](C)O)C(C)C | MAPK8 (Homo sapiens, UniProt P45983) | enzyme activity, inhibitor | – | – | 330 ± 10 nM
NC(=O)[C@@H]1CCCNC(=O)[C@H](Cc2ccc([N+](=O)[O-])cc2)NC(=O)[C@H](Cc2ccccc2)NC(=O)[C@H](Cc2cccc3ccccc23)NC(=O)/C=C/C(=O)N1 | SRC SH3-SH2-kinase domain | enzyme activity, inhibitor, Z'-LYTE FRET | – | Src residues 83-533, added: 50 µM ATP | 370 ± 30 nM
O=C1Nc2ccc(-c3ccc(C(=O)N4CCCC4)cc3)cc2/C1=C/c1ccc(N2CCNCC2)cc1 | FGFR3 | enzyme activity, inhibitor | – | – | 163 nM
COc1cc(N2CCN(C)CC2)ccc1Nc1ncc2c(n1)N(C)c1ccc(C)cc1C(=O)N2CC(F)(F)F | DCLK1 (Homo sapiens, UniProt O15075) | target engagement, NanoBRET | HCT-116 | – | > 10000 nM
O=C1/C=C\C(=O)N[C@@H](CC2CCCCC2)C(=O)N[C@@H](Cc2ccccc2)C(=O)N[C@@H](CCCNC(=O)c2cnccn2)C(=O)NCC[C@@H](C(=O)O)N1 | SRC SH3-SH2-kinase domain | enzyme activity, inhibitor, Z'-LYTE FRET | – | Src residues 83-533, added: 50 µM ATP | ≤ 4 nM
COc1ccc(C(=O)/C=C/c2ccc(O)cc2)c(O)c1CC=C(C)C | Dopamine beta-hydroxylase (Homo sapiens, UniProt P09172) | enzyme activity, inhibitor | – | – | 12000 nM
CN=c1nc(-c2ccccc2)n(-c2ccccc2)s1 | Trypanothione synthetase (Trypanosoma brucei brucei, UniProt Q586P2) | enzyme activity, BIOMOL Green phosphate release | – | 1 h preincubation | 3700 nM and 4000 nM

SMILES | target | assay | test system | conditions | IC50
N#C/C(=C\c1ccc(O)c(O)c1)C(=O)c1ccc(O)c(O)c1 | Genome polyprotein NS3 helicase domain | helicase activity, molecular beacon helicase | – | added: DNA substrate | > 100000 nM
Nc1nc(Cl)nc2c1ncn2Cc1cccc(OCC(F)F)c1 | PDE8A (Homo sapiens, UniProt O60658) | enzyme activity, inhibitor, radiometric | – | – | 117 nM
CN1C[C@H](c2cccc(C(F)(F)F)c2)[C@@H](C(=O)Nc2ccccc2F)C1=O | DHODH (Homo sapiens, UniProt Q02127) | enzyme activity, inhibitor, absorbance | – | – | 380 nM
Cc1nc2ccc(Cc3c[nH]c4ncc(C(F)(F)F)cc34)cc2o1 | FGFR3 | enzyme activity, inhibitor | – | – | 634 nM
Cc1nc(Nc2ncc(C(=O)Nc3c(C)cccc3Cl)s2)cc(N2CCN(CCOC(=O)[C@@H](N)CCCNC(=N)N)CC2)n1 | ABL1 (Homo sapiens, UniProt P00519) | – | – | – | < 0.45 nM
OC[C@@H]1[C@@H](O)[C@H](O)[C@@H](O)CN1CCCCCOCC1CCOC1 (some centres unmarked) | Ugcg (Mus musculus, UniProt O88693) | enzyme activity in cells, inhibitor, fluorescence | – | – | 53000 nM
CC(=N)N(C)c1ccc(C(=O)Nc2ccc(F)cc2C(=O)Nc2ccc(Cl)cn2)cc1 | F10 (Homo sapiens, UniProt P00742) | enzyme activity, inhibitor, absorbance | – | – | 0.5 nM
CN1CCN(Cc2ccc(-c3ccc(CO[C@H]4CCC[C@@H]4NC(=O)c4cc(-c5cnn(C)c5)cnc4N)cc3)cc2)CC1 | CHEK2 (Homo sapiens, UniProt O96017) | enzyme activity, inhibitor | – | – | 102 nM
O=C([O-])CN1CCN(CC(=O)[O-])CCN(CC(=O)NCC2CCC(C(=O)NC(Cc3ccc4ccccc4c3)C(=O)NCCCCC(NC(=O)NC(CCC(=O)O)C(=O)O)C(=O)O)CC2)CCN(CC(=O)[O-])CC1.[Sc+3] (centres unmarked) | FOLH1 (Homo sapiens, UniProt Q04609) | ligand displacement, radioligand | – | – | 4.72 nM
Cc1cc(S(=O)(=O)NCc2nn(-c3ccccc3)nc2C)c(C)s1 | Trypanothione synthetase (Trypanosoma brucei, UniProt Q586P2) | enzyme activity, inhibitor | – | – | 24000 nM
Cc1ccccc1-c1cc(N2CCCCC2)ccc1N(C)C(=O)C(C)(C)c1cc(C(F)(F)F)cc(C(F)(F)F)c1 | TACR1 (Homo sapiens, UniProt P25103) | IP1 accumulation, antagonist, HTRF | – | 90 min preincubation, added: substance P 10 nM | 166 nM
Cc1ccc2nc(-c3ccc4nc(-c5ccc6nc(-c7ccc(N)cc7)sc6c5)sc4c3)sc2c1S(=O)(=O)O | Genome polyprotein NS3 helicase domain | helicase activity, inhibitor, MBHA | – | – | 900 ± 100 nM
O=[N+]([O-])c1ccc(Cn2cc(Cn3cc(CO)nn3)nn2)cc1 | Pleckstrin homology domain-containing family A member 1, PH domain (Homo sapiens, UniProt Q9HB21) | PI(3,4)P2 binding, competitive SPR | – | PH domain 500 nM | 1110 ± 78 nM
COc1ccc(C(=O)Nc2n[nH]c3ccc(NC(=O)C(CCN)c4cccc(Cl)c4)cc23)cc1 (centres unmarked) | Tyrosine-protein kinase HCK, SH3 (HCK, Homo sapiens, UniProt P08631, K245P/K248P) | enzyme activity, inhibitor | – | – | 400 nM
C[C@@H](N)C1CCN(S(=O)(=O)c2cccc3cnccc23)CC1 | ROCK2 (Homo sapiens, UniProt O75116) | enzyme activity, inhibitor, radiometric | – | – | 590 nM
O=C1/C=C/C(=O)N[C@@H](CC2CCCCC2)C(=O)N[C@@H](Cc2ccc(F)cc2)C(=O)N[C@@H](Cc2ccc([N+](=O)[O-])cc2)C(=O)NCCC[C@@H](C(=O)O)N1 | SRC SH3-SH2-kinase domain | enzyme activity, inhibitor, Z'-LYTE FRET | – | Src residues 83-533, added: 50 µM ATP | ≤ 4 nM
CC1(C)CCCc2cc3c(cc21)C(=O)C=CC3=O | DNA topoisomerase IB (Leishmania donovani, UniProt A0A3Q8IHS4+Q8WQM6) | DNA relaxation activity, inhibitor | – | added: supercoiled plasmid DNA | 10700 ± 2200 nM

Repeated from above:
SMILES | target | assay | test system | conditions | IC50
CC(=N)N(C)c1ccc(C(=O)Nc2ccc(F)cc2C(=O)Nc2ccc(Cl)cn2)cc1 | F10 (Homo sapiens, UniProt P00742) | enzyme activity, inhibitor, absorbance | – | – | 0.5 nM
O=C(Cn1nc(C(F)(F)F)c2c1CCCC2)NC1CCCCC1 | Trypanothione synthetase (Trypanosoma brucei, UniProt Q586P2) | enzyme activity, inhibitor | – | – | > 100000 nM
Cc1nc2ccc(Cc3c[nH]c4ncc(C(F)(F)F)cc34)cc2o1 | FGFR3 | enzyme activity, inhibitor | – | – | 634 nM
O=C1/C=C/C(=O)N[C@@H](CC2CCCCC2)C(=O)N[C@@H](Cc2ccc(F)cc2)C(=O)N[C@@H](Cc2ccc([N+](=O)[O-])cc2)C(=O)NCCC[C@@H](C(=O)O)N1 | SRC SH3-SH2-kinase domain | enzyme activity, inhibitor, Z'-LYTE FRET | – | Src residues 83-533, added: 50 µM ATP | ≤ 4 nM
